Assay results gathered from unrelated publications.
Numbers after ± are the reported error.
gdpP residues 84-659: gdpP, residues 84-659 (Bacillus subtilis, UniProt P37484)
UniProt P37484, sequence (84-659, looked up): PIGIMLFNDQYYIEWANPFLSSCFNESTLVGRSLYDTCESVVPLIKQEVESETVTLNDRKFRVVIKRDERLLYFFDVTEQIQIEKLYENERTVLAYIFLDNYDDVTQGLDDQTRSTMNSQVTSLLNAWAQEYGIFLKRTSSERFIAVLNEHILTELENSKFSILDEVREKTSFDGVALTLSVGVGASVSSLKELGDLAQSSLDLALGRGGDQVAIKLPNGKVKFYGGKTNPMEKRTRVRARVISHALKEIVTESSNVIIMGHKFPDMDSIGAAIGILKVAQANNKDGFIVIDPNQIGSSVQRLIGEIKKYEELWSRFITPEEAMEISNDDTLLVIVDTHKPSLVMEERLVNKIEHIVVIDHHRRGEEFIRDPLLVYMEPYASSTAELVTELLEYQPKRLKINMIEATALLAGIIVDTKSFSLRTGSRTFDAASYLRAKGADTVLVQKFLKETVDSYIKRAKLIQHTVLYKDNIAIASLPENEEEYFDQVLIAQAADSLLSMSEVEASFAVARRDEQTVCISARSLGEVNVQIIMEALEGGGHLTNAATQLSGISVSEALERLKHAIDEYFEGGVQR
Ryanodine receptor 1: Ryanodine receptor 1 (Oncorhynchus mykiss, UniProt A0A8C7UX14)
CNR1: Cannabinoid receptor 1 (CNR1, Homo sapiens, UniProt P21554)
UniProt P21554, sequence (whole entry, looked up): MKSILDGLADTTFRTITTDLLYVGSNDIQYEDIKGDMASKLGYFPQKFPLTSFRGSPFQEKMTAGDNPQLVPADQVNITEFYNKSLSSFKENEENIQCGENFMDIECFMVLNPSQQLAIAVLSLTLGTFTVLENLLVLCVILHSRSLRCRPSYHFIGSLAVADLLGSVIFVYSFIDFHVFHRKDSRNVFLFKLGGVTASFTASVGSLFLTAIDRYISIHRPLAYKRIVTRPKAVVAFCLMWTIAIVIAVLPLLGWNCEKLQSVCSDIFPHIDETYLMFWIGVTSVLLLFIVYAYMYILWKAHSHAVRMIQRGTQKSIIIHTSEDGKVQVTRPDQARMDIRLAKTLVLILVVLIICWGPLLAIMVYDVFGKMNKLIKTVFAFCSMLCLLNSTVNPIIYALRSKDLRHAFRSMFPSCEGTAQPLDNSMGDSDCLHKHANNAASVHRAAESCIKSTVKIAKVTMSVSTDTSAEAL
UniProt P17787, sequence (whole entry, looked up): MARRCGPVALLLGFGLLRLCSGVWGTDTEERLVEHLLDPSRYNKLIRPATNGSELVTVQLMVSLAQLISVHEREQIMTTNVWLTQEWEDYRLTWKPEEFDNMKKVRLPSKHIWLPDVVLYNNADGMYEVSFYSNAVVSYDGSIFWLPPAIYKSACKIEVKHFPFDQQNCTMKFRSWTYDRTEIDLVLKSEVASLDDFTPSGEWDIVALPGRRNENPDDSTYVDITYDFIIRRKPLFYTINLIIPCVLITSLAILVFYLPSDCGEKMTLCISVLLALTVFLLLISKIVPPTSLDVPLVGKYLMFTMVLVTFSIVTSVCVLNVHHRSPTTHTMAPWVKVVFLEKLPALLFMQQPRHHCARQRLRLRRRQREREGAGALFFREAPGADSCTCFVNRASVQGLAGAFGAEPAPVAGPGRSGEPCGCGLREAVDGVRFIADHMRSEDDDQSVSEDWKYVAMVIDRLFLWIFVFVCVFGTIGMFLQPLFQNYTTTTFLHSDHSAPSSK
UniProt A7XUK7, sequence (whole entry, looked up): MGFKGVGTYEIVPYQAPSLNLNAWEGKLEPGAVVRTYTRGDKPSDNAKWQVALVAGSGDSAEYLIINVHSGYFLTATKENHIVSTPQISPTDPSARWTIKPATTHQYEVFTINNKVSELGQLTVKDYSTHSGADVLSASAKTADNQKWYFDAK
UniProt P12996, sequence (whole entry, looked up): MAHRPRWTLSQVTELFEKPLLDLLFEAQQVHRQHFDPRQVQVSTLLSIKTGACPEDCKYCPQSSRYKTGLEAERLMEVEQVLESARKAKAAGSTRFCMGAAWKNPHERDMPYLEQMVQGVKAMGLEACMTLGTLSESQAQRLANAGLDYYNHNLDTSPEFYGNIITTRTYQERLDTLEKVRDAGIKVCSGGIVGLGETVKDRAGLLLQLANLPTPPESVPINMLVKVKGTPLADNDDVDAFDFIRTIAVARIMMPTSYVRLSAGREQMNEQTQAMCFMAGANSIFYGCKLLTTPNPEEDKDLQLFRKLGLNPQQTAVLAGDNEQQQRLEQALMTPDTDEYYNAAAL
UniProt Q9H008, sequence (whole entry, looked up): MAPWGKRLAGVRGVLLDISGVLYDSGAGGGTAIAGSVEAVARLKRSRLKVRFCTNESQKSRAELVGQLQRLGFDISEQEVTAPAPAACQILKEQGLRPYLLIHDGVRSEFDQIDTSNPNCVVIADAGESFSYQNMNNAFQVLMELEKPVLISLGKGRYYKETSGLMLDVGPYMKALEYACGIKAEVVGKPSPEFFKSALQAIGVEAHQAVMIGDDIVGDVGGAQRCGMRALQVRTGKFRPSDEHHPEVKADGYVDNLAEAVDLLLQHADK
UniProt P0A6Y8, sequence (whole entry, looked up): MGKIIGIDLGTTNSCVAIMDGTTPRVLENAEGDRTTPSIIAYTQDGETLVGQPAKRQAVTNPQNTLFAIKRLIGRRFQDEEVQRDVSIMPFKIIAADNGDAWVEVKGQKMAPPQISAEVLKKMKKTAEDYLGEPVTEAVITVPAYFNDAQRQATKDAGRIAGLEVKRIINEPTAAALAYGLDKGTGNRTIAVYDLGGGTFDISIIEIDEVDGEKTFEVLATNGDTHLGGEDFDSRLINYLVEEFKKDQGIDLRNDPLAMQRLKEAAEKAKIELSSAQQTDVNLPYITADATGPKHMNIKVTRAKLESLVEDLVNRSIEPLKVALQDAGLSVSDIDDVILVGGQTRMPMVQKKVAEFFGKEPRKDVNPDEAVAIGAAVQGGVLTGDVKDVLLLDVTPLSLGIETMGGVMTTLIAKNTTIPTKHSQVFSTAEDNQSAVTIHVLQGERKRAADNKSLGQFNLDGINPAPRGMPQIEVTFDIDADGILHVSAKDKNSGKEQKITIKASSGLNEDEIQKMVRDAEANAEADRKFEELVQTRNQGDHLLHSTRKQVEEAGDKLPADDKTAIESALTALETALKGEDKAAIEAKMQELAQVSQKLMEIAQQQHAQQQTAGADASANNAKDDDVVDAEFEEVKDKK
UniProt Q8NKB0, sequence (whole entry, unmodified, looked up): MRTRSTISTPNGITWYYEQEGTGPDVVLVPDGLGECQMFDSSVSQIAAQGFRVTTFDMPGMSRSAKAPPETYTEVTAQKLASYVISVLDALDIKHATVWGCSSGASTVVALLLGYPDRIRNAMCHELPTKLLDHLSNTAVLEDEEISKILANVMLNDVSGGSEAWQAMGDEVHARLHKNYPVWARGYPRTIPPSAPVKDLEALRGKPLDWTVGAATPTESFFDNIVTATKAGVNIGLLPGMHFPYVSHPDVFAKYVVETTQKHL
UniProt P62813, sequence (whole entry, unmodified, looked up): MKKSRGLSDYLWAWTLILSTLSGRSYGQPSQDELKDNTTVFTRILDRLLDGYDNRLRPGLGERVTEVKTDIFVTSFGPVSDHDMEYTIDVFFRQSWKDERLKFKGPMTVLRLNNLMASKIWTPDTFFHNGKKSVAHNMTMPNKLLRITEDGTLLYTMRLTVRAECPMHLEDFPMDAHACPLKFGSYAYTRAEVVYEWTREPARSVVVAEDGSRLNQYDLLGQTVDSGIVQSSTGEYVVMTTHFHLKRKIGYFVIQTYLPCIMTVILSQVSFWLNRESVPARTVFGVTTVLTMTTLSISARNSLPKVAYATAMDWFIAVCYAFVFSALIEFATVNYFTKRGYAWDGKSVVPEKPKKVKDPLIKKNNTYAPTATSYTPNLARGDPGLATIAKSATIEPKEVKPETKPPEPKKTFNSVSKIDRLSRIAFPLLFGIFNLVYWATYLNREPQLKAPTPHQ
UniProt P41143, sequence (whole entry, looked up): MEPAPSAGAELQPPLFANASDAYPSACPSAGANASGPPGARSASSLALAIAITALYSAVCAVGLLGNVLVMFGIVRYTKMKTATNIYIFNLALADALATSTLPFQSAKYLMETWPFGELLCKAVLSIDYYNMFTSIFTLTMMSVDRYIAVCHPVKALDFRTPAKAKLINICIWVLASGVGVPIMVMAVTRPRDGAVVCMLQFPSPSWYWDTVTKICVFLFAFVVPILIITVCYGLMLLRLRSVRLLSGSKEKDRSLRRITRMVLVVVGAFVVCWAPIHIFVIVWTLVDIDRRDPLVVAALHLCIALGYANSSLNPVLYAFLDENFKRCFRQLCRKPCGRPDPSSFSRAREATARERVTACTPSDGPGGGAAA
UniProt P43681, sequence (whole entry, looked up): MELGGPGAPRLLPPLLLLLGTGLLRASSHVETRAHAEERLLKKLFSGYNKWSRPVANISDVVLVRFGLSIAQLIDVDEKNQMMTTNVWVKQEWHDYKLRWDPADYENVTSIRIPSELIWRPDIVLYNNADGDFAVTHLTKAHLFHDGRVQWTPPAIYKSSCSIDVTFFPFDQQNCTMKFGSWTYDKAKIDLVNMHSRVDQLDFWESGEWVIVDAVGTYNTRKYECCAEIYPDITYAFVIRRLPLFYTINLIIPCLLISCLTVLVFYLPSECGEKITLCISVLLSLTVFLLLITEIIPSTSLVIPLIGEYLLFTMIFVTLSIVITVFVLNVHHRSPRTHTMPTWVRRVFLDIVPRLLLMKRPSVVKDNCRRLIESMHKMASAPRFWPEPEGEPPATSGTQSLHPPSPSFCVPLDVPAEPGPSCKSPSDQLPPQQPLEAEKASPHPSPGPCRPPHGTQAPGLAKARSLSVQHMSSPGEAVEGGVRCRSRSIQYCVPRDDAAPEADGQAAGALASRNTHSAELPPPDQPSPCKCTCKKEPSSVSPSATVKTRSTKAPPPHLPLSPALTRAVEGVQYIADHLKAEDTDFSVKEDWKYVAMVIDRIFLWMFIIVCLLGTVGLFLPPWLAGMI
UniProt P54292, sequence (whole entry, looked up): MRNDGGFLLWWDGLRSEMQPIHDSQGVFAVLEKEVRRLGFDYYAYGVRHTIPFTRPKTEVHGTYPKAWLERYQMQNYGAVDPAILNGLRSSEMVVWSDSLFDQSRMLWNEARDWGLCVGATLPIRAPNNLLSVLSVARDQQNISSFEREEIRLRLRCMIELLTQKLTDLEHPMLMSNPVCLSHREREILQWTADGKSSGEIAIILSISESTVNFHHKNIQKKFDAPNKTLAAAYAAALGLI

Nc1ncnc2c1ncn2[C@@H]1O[C@@H]2COP(=O)(O)O[C@H]3[C@@H](F)[C@H](n4cnc5c(N)ncnc54)O[C@@H]3COP(=O)(O)O[C@H]2[C@H]1F
degradation rate (gdpP residues 84-659; substrate, HPLC; 100 µM, 37 °C, upper limit if undegraded 24 h, with: enzyme 1 µM): ≤ 0.001 mol/min/mol enzyme

O=S(=O)(O)Oc1cc(Cl)c(-c2cc(Cl)ccc2Cl)cc1Cl
Vmax (sulfatase, human liver microsomes; substrate; pH 7.4, 37 °C): 7.6 ± 0.2 nmol/min/mg

O=S(=O)(c1ccccc1OCC(F)(F)F)N1CC(c2nc(-c3ccc(F)cc3)no2)C1
activity (Calcium-activated potassium channel subunit alpha-1, with beta-3 subunit (KCNMA1, Homo sapiens, UniProt Q12791); HEK293; 30 µM): inactive

Clc1cc(Cl)c(-c2cc(Cl)c(Cl)cc2Cl)cc1Cl
Emax (Ryanodine receptor 1; [3H]ryanodine binding; rainbow trout, skeletal muscle microsomes; up to 20 µM; reference: DMSO): 167 ± 14.6%

TVNKTERAY
translocated peptide (Antigen peptide transporter 1/Antigen peptide transporter 2 (Homo sapiens, UniProt Q03518+Q03519); substrate, radiolabelled peptide transport; peptide, LCL721, streptolysin O-permeabilised; concentration not given; reference: input): 4 to 5%

CC[C@H](C)[C@H](NC(=O)[C@H](C)NC(=O)[C@H](CCC(=O)O)NC(C)=O)C(=O)N[C@H]1CCCC=CCCC[C@@H](C(=O)N[C@@H](CCC(N)=O)C(=O)N[C@@H](CC(C)C)C(=O)N[C@@H](CC(C)C)C(=O)N[C@@H](Cc2ccccc2)C(=O)N[C@H](C(=O)N[C@@H](Cc2c[nH]cn2)C(=O)N[C@@H](Cc2ccccc2)C(=O)N[C@@H](CCCNC(=N)N)C(=O)N[C@H](C(=O)NCC(=O)N[C@@H](CCCNC(=N)N)C(=O)N[C@@H](CCCNC(=N)N)C(=O)N[C@@H](CCCNC(=N)N)C(=O)N[C@@H](CCCNC(=N)N)C(=O)N[C@@H](CCCNC(=N)N)C(=O)N[C@@H](CCCNC(=N)N)C(=O)N[C@@H](CCCNC(=N)N)C(=O)N[C@@H](CCCNC(=N)N)C(N)=O)[C@@H](C)CC)[C@@H](C)CC)NC(=O)[C@H](CC(C)C)NC(=O)[C@H]([C@@H](C)CC)NC(=O)[C@H](CCCNC(=N)N)NC1=O
minimum DNA retardation concentration (HIV-1 integrase and DNA substrate; DNA binding, gel retardation; 2 h, 37 °C, with: radiolabelled oligonucleotide DNA): 4 µM

C[C@H]1CCCC(=O)CCC/C=C/c2cc(O)cc(O)c2C(=O)O1
Km (zhd101 (Clonostachys rosea, UniProt Q8NKB0, E145K); substrate, HPLC; 10 min, pH 5.5, 37 °C, 1% acetonitrile): 33.9 ± 3.53 mM

N[C@@H](Cc1ccc(OP(=O)(O)O)cc1)C(=O)O
substrate hydrolysis (Phospholysine phosphohistidine inorganic pyrophosphate phosphatase (LHPP, Homo sapiens, UniProt Q9H008); substrate, absorbance; 100 µM, 90 min, pH 7.8): 4.81%

CCCC(C)Sc1nc2c([nH]1)c(=S)n(C)c(=O)n2C (stereo not shown)
remaining activity (PGR (Homo sapiens, UniProt P06401); reporter gene, antagonist, MMTV-luciferase; T47D/A1-2; 10 µM, 24 h, with: 5 nM progesterone; reference: maximal activity): 53%

Clc1cc(Cl)c(-c2c(Cl)cc(Cl)c(Cl)c2Cl)cc1Cl
Emax (Ryanodine receptor 1; [3H]ryanodine binding, activator; trout muscle microsomes; concentration not given; reference: DMSO): 143%

COC1C(OC(=O)c2ccc(C)[nH]2)C(O)C(Oc2ccc3c(O)c(NC(=O)c4ccc(O)c(CC=C(C)C)c4)c(=O)oc3c2Cl)OC1(C)C (stereo not shown)
change in inhibition with detergent (galE (Trypanosoma brucei, UniProt Q8T8E9); enzyme activity, inhibitor, HPAEC; 30 µM, with: UDP-galactose substrate, 0.06% n-octylglucopyranoside): no effect

C[C@@H]1CN(c2cccnc2)C(=O)c2cc(COc3ccc(Cl)cn3)nn21
activity class (Grm5 (Rattus norvegicus, UniProt P31424); calcium mobilisation, allosteric modulator; rat mGlu5-expressing cells; concentration not given): inactive

COc1ccc(CC2=[N+](C)CCc3cc(OC)c(O)cc32)cc1O
substrate inhibition constant (DRS-DRR fusion enzyme REPI (Papaver somniferum, UniProt A0A0H4IM19); enzyme activity, substrate, LC-MS product formation; with: NADPH 500 µM): 43.9 ± 15.4 µM

anthraquinone-neomycin
binding site size (poly(dA)•2poly(dT) DNA triplex; DNA binding, CD titration; concentration not given, pH 5.5, KCl 150 mM): 7.5 base triplets

CC[C@H](C)[C@H](NC(=O)[C@H](C)NC(=O)[C@H](CO)NC(=O)[C@@H](NC(=O)[C@H](CCC(=O)O)NC(=O)[C@H](CCC(=O)O)NC(=O)[C@H](CCC(N)=O)NC(=O)[C@H](CCCCN)NC(=O)[C@H](CCCNC(=N)N)NC(=O)[C@@H](N)CCCCN)C(C)C)C(=O)N[C@H](C(=O)N[C@H](C(=O)N[C@@H](CCC(N)=O)C(=O)N[C@@H](CCCNC(=N)N)C(=O)N[C@@H](C)C(=O)N[C@@H](Cc1ccc(O)cc1)C(=O)N[C@@H](CCCNC(=N)N)C(=O)N[C@@H](CCCNC(=N)N)C(=O)N[C@@H](Cc1ccc(O)cc1)C(=O)N[C@@H](CC(C)C)C(=O)N[C@@H](CC(C)C)C(=O)N[C@@H](CCCCN)C(=O)N[C@@H](CCC(N)=O)C(=O)N[C@@H](CCCCN)C(=O)N[C@H](C(=O)N[C@@H](CCCCN)C(=O)N[C@@H](CCCCN)C(=O)O)C(C)C)[C@@H](C)CC)C(C)C
fluorescence emission increase (Calmodulin (CAM, Paramecium tetraurelia, UniProt P07463); 3 to 1 µM, pH 7.4, 22 °C, Ca2+-bound CaM residues 1-148; reference: peptide alone): 25%

CN[C@@](C)(C[18F])C(=O)O
tumour uptake (SCID mouse U87 xenograft; 15 min post injection): 5.6 ± 0.7 %ID/g

CC1(NC(=O)c2nn(Cc3ccc(F)cc3)c3ccccc23)CCCN(CC(N)=O)C1 (stereo not shown)
Emax (CNR1; calcium mobilization, agonist; CHO-K1 expressing Gαq16; reference: CP55,940 maximum): 142 ± 11%

DNRDGNVYYF
Hill coefficient (Serine endoprotease DegS (degS, Escherichia coli, UniProt P0AEE3); substrate; peptide; 23 °C, with: OMP peptide): 1.6 ± 0.2

Clc1ccc(-c2c(Cl)ccc(Cl)c2Cl)c(Cl)c1Cl
Emax (Ryanodine receptor 1; [3H]ryanodine binding; rainbow trout, skeletal muscle microsomes; up to 20 µM; reference: DMSO): 122 ± 9.49%

CC(C)(NC(=O)c1nn(Cc2ccc(F)cc2)c2ccccc12)C1CCN(CC(N)=O)CC1
Emax (CNR1; calcium mobilization, agonist; CHO-K1 expressing Gαq16; reference: CP55,940 maximum): 109 ± 6%

O=C(OC1CCCN(CCCc2ccccc2)C1)c1ccccc1-c1ccccc1 (stereo not shown)
potency fold change (Neuronal acetylcholine receptor; alpha4/beta2 (Homo sapiens, UniProt P17787+P43681); concentration not given; reference: amide analogue over parent scaffold): 1.5

CC(C)(NC(=O)c1nn(CCCCC(F)(F)F)c2ccccc12)c1cccc(C(N)=O)c1
Emax (CNR1; calcium mobilization, agonist; CHO-K1 expressing Gαq16; reference: CP55,940 maximum): 73 ± 4%

CC(C)C[C@H](NC(=O)[C@H](CCCCN)NC(=O)[C@H](CCCCN)NC(=O)CNC(=O)[C@H](CCCNC(=N)N)NC(=O)[C@@H](N)CCCNC(=N)N)C(=O)N[C@@H](CC(C)C)C(=O)N[C@@H](CC(C)C)C(=O)N[C@@H](CC(C)C)C(=O)N[C@@H](CC(C)C)C(=O)N[C@@H](CCCCN)C(=O)N[C@@H](CCCCN)C(=O)N[C@@H](CCCCN)C(=O)NCC(=O)O
fraction client-bound (dnaK, ADP-bound (Escherichia coli, UniProt P0A6Y8); native gel shift; 50 µM, ADP-bound DnaK): 1.04 ± 0.04

Cc1cc(C(=O)N[C@H](CN2CCN(c3cccc(O)c3)[C@@H](C)C2)C(C)C)ccc1Oc1ccccc1
Ke (OPRD1 (Homo sapiens, UniProt P41143); antagonist; CHO; with: DPDPE): 435 ± 140 nM

CSCC[C@H](N)C(=O)O
remaining activity (bioB (Escherichia coli, UniProt P12996); enzyme activity, inhibitor; 500 µM): 72%

CC(=O)N[C@H]1[C@H](OCCN)O[C@H](CO)[C@@H](O[C@@H]2O[C@H](CO)[C@H](O[C@H]3O[C@H](CO)[C@H](O)[C@H](O[C@@H]4O[C@H](CO)[C@H](O)[C@H](O)[C@H]4NC(C)=O)[C@H]3O)[C@H](O)[C@H]2O)[C@@H]1O
lectin binding (Agglutinin (Sclerotinia sclerotiorum, UniProt A7XUK7); glycan array; concentration not given, pH 7.4, room temperature): 16800 ± 1710 RFU

O=[N+]([O-])c1ccc2c(c1)S(=O)(=O)C=C2
luminescence (Fibroblast growth factor 14/SCN8A, Nav1.6 C-terminal tail (Homo sapiens, UniProt Q92915+Q9UQD0); FGF14-Nav1.6 complex formation, luciferase complementation; HEK293 stably expressing both; 30 µM; reference: DMSO): 6%

O=C(Cc1ccccc1F)N[C@H]1CCOC1=O
activation (rhlR (Pseudomonas aeruginosa, UniProt P54292); reporter gene, agonist; Escherichia coli reporter strain; 100 µM; reference: BHL 900 µM): 66%

Nc1ncnc2c1ncn2[C@@H]1O[C@@H]2CO[P@@](=O)(S)O[C@H]3[C@@H](O)[C@H](n4cnc5c(N)ncnc54)O[C@@H]3CO[P@@](=O)(S)O[C@H]2[C@H]1O
degradation rate (gdpP residues 84-659; substrate, HPLC; 100 µM, 37 °C, upper limit if undegraded 24 h, with: enzyme 1 µM): ≤ 0.001 mol/min/mol enzyme

copper-phenanthroline
GABA current change (Gabrg2/GABRB2/Gabra1 (Rattus norvegicus, UniProt P18508+P47870+P62813, C260A/C282A/C312A/C319A/C341A); two-electrode voltage clamp; Xenopus oocytes; 100 µM with phenanthroline 200 µM, 2 min, after DTT, with: GABA EC50; reference: initial response): no effect

O[C@@H](CN1CC[C@H](CCOC(c2ccccc2)c2ccccc2)[C@@H](O)C1)c1ccccc1
Ki (Slc6a3 (Rattus norvegicus, UniProt P23977); dopamine uptake, inhibitor; rat striatum; with: [3H]dopamine): 18.4 nM

Repeated from above:
O=S(=O)(O)Oc1cc(Cl)c(-c2cc(Cl)ccc2Cl)cc1Cl
Vmax (sulfatase, human liver microsomes; substrate; pH 7.4, 37 °C): 7.6 ± 0.2 nmol/min/mg

O=S(=O)(c1ccccc1OCC(F)(F)F)N1CC(c2nc(-c3ccc(F)cc3)no2)C1
activity (Calcium-activated potassium channel subunit alpha-1, with beta-3 subunit (KCNMA1, Homo sapiens, UniProt Q12791); HEK293; 30 µM): inactive

Clc1cc(Cl)c(-c2cc(Cl)c(Cl)cc2Cl)cc1Cl
Emax (Ryanodine receptor 1; [3H]ryanodine binding; rainbow trout, skeletal muscle microsomes; up to 20 µM; reference: DMSO): 167 ± 14.6%

TVNKTERAY
translocated peptide (Antigen peptide transporter 1/Antigen peptide transporter 2 (Homo sapiens, UniProt Q03518+Q03519); substrate, radiolabelled peptide transport; peptide, LCL721, streptolysin O-permeabilised; concentration not given; reference: input): 4 to 5%
